Experimental data pooled from the literature.
Each line is one published result; not all experiments were run side by side. pIC50: −log10 of the molar value. In brackets after ≈: the same amount, converted by molar mass.
LATS1: Serine/threonine-protein kinase LATS1 (LATS1, Homo sapiens, UniProt O95835)
Sequence of UniProt O95835 (whole entry, looked up): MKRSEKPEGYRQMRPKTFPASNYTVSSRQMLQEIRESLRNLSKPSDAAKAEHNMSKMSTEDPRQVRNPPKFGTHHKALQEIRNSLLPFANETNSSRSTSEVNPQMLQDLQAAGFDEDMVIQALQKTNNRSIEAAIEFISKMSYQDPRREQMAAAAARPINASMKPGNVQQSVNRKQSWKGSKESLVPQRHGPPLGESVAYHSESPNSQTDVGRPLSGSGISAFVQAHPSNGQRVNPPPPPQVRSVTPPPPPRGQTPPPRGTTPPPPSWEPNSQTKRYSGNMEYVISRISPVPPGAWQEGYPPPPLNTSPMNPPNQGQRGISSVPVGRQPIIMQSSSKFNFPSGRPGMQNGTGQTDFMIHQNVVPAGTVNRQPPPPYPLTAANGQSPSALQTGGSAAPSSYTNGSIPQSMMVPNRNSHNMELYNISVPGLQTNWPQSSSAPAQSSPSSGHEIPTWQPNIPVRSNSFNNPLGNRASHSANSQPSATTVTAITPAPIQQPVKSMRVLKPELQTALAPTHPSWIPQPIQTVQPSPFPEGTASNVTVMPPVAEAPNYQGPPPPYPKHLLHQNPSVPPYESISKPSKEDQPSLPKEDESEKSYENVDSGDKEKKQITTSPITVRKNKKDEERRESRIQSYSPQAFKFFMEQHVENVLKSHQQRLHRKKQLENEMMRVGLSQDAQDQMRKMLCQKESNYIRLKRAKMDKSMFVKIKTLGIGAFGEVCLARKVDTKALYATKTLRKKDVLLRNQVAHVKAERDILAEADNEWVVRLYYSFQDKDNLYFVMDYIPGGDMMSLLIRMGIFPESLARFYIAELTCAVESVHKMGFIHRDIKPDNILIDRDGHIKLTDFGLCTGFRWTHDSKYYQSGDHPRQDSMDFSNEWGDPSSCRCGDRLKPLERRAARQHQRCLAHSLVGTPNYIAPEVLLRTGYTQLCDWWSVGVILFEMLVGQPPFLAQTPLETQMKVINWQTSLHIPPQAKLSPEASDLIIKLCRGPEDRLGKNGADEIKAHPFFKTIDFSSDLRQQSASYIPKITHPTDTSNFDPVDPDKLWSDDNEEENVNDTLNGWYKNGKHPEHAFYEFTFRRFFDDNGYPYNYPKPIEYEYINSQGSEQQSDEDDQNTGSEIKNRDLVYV
4'-phosphopantetheinyl transferase PptT: 4'-phosphopantetheinyl transferase PptT (Mycobacterium tuberculosis, UniProt O33336)
Sequence of UniProt O33336 (whole entry, looked up): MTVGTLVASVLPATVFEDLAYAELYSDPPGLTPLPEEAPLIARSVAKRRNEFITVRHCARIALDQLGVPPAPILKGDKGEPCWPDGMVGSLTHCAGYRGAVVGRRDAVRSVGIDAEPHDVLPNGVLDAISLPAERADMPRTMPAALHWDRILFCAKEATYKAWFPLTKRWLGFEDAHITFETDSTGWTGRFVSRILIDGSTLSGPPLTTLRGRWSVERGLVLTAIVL
Sequence of UniProt Q8IW41 (whole entry, looked up): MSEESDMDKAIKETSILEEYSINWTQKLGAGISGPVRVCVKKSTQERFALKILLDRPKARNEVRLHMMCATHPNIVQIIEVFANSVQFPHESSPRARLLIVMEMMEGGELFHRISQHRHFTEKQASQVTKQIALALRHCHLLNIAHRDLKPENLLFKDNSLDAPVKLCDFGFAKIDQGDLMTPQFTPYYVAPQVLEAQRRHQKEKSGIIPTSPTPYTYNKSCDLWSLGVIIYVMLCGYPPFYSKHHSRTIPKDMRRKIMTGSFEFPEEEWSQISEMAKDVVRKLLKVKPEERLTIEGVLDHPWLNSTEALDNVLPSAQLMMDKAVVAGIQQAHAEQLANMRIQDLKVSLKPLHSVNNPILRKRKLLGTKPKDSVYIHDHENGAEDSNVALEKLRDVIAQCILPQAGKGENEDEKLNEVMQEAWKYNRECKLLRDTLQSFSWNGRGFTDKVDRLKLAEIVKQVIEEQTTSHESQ
Sequence of UniProt P36894 (whole entry, looked up): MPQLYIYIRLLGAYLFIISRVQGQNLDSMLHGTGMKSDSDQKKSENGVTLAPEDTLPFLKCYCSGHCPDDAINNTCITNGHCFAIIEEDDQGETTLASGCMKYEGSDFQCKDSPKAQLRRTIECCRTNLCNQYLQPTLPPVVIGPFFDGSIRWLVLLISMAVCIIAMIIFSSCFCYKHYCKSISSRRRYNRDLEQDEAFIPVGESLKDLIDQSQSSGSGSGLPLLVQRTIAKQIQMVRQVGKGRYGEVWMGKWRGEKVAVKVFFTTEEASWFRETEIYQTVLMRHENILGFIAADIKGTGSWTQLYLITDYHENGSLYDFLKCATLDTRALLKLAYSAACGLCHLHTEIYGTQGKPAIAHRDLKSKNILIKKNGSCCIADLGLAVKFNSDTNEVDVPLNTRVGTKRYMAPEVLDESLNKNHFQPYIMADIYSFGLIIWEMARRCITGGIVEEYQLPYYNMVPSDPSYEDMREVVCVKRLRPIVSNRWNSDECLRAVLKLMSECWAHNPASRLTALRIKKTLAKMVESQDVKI

CC(C)C[C@H]1C(=O)N2CCC[C@H]2C(=O)N[C@@H](CC(N)=O)C(=O)N[C@H](Cc2ccc(O)cc2)C(=O)N[C@H]([C@H](C)O)C(=O)N[C@@H](Cc2ccc(O)cc2)C(=O)N[C@H](C(=O)O)CSSC[C@H](N)C(=O)N[C@@H](Cc2ccccc2)C(=O)N[C@@H](C(C)C)C(=O)N1C  solubility (aqueous buffer; 18 h, pH 7.4): 759 µM (≈ 936 µg/mL)
COc1ncccc1-c1cnn2ccc(N3CCN(C(=O)OC(C)C)CC3)nc12  remaining binding (LATS1; binding, competition with immobilised ligand; 1 µM): 100%
CC[C@H](C)[C@H]1C(=O)N[C@@H]([C@@H](C)O)C(=O)N[C@@H](C)C(=O)N[C@@H](Cc2ccccc2)C(=O)N[C@@H](CC(C)C)C(=O)NCC(=O)N[C@@H](CC(C)C)C(=O)N2CCC[C@@H]2C(=O)N[C@H](Cc2ccc(O)cc2)C(=O)N2CCC[C@H]2C(=O)NCC(=O)N[C@@H](CCCNC(=N)N)C(=O)N1C  thermodynamic solubility (aqueous buffer; 18 h, pH 7.4): 768 µM (≈ 999 µg/mL)
Cc1ccccc1C(=O)NN=Cc1ccc(O)c(Br)c1  bioavailability (mouse, plasma; intraperitoneal, 1.6 mg/kg): 100%
CCOC(=O)c1c(NC(=O)CNC(C)C)sc2c1CCCCC2  half-life (male mouse, plasma; intraperitoneal, 100 mg/kg, single dose): 127 min
CC(C)C[C@H]1C(=O)N[C@H]([C@H](C)O)C(=O)N[C@@H](C)C(=O)N[C@@H](Cc2ccccc2)C(=O)N[C@H](C(=O)O)CSSC[C@H](N)C(=O)N2CCC[C@@H]2C(=O)N[C@@H](CCC(=O)O)C(=O)N[C@@H](C(C)C)C(=O)N2CCC[C@H]2C(=O)N1C  thermodynamic solubility (aqueous buffer; 18 h, pH 7.4): 686 µM (≈ 749 µg/mL)
CN[C@H](CC(C)C)C(=O)N[C@H]1C(=O)N[C@@H](CC(N)=O)C(=O)N[C@H]2C(=O)NC3C(=O)N[C@H](C(=O)N[C@H](C(=O)NCCC[N+](C)(C)C)c4cc(O)cc(O)c4-c4cc3ccc4O)[C@H](O)c3ccc(c(Cl)c3)Oc3cc2cc(c3OC2OC(CO)C(O)[C@H](O)[C@@H]2O[C@H]2CC(C)(NCc3ccc(-c4ccc(Cl)cc4)cc3)[C@H](O)[C@H](C)O2)Oc2ccc(cc2Cl)[C@H]1O (stereo partly drawn)  Vd (mouse, plasma; intravenous, 50 mg/kg): 1.04 L/kg
CCCC[C@@H]1NC(=O)[C@H](Cc2ccc(O)cc2)NC(=O)[C@@H]2CCCN2C(=O)[C@H](CC(=O)O)NC(=O)[C@H](C)NC(=O)[C@H](Cc2ccccc2)NC(=O)[C@@H]2CSCCC(=O)N3CN(CN(C3)C(=O)CCSC[C@H](NC(C)=O)C(=O)N[C@@H](CC(C)(C)C)C(=O)N3CCC[C@H]3C(=O)N[C@@H](CCC(=O)O)C(=O)N[C@H](CCCCNC(=O)CCc3cn(CCOCCOCCOCCN(CCOCCOCCOCCC(=O)N[C@H]4CSCCC(=O)N5CN6CN(C5)C(=O)CCSC[C@H](NC(=O)[C@@H](CC(=O)O)NC(=O)[C@H](Cc5cccc7ccccc57)NC(=O)[C@@H]5CCCN5C4=O)C(=O)N[C@@H](CCSC)C(=O)N[C@@H](CCCCNC(=N)N)C(=O)N[C@@H](CC(=O)O)C(=O)N[C@@H](Cc4c[nH]c5ccccc45)C(=O)N[C@@H](CO)C(=O)N[C@@H]([C@@H](C)O)C(=O)N4CCC[C@H]4C(=O)N4C[C@H](O)C[C@H]4C(=O)N[C@@H](Cc4c[nH]c5ccccc45)C(=O)N[C@H](C(N)=O)CSCCC6=O)CCOCCOCCOCCn4cc(CCC(=O)NCCCC[C@H]5NC(=O)[C@H](CCC(=O)O)NC(=O)[C@@H]6CCCN6C(=O)[C@H](CC(C)(C)C)NC(=O)[C@@H](NC(C)=O)CSCCC(=O)N6CN7CN(C6)C(=O)CCSC[C@H](NC(=O)[C@H](Cc6ccc(O)cc6)NC(=O)[C@@H]6CCCN6C5=O)C(=O)N[C@@H](Cc5ccccc5)C(=O)N[C@@H](C)C(=O)N[C@@H](CC(=O)O)C(=O)N5CCC[C@H]5C(=O)N[C@@H](Cc5ccc(O)cc5)C(=O)N[C@@H](CCCC)C(=O)N[C@H](C(N)=O)CSCCC7=O)nn4)nn3)C(=O)N3CCC[C@H]3C(=O)N[C@@H](Cc3ccc(O)cc3)C(=O)N2)C(=O)CCSC[C@@H](C(N)=O)NC1=O  Vd (rat, plasma; intravenous, 2 mg/kg): 2.2 L/kg
C=CS(=O)(=O)c1ccc(Nc2nc(OCC3CCCCC3)c3nc[nH]c3n2)cc1  MTD (general toxicity; C57BL/6 mouse; intraperitoneal): 100 mg/kg
CC(C)C[C@@H]1NC(=O)[C@H](CCC(=O)O)NC(=O)[C@H]2CCCN2C(=O)[C@@H](N)CSSC[C@@H](C(=O)O)NC(=O)[C@@H]2CCCN2C(=O)[C@H](Cc2ccccc2)NC(=O)[C@H](CC(C)C)N(C)C(=O)[C@H]([C@@H](C)O)NC(=O)[C@H](C(C)C)NC1=O  solubility (aqueous buffer; 18 h, pH 7.4): 741 µM (≈ 840 µg/mL)
CC(C)CC(=O)OC[C@H]1O[C@@](C#N)(c2ccc3c(N)ncnn23)[C@H](O)[C@@H]1O  half-life (metabolic stability; rat, hepatocytes; 5 µM): < 4.36 min
CC(C)C[C@H]1C(=O)N[C@@H](C)C(=O)N[C@@H](CO)C(=O)N[C@@H](C(C)C)C(=O)N(C)[C@@H](CC(C)C)C(=O)N[C@H](C)C(=O)N[C@H](C(C)C)C(=O)N2CCC[C@@H]2C(=O)N[C@H](Cc2ccc(O)cc2)C(=O)NCC(=O)N1C  solubility (aqueous buffer; 18 h, pH 7.4): 813 µM (≈ 812 µg/mL)
CCC[C@@](N)(CO)CCc1ccc(OCCCCCC(C)C)cc1  C0 (dog, plasma; intravenous, 1 mg/kg): 89.4 nM
N=c1c2c(-c3ccccc3)c(-c3ccccc3)n(Cc3ccccc3)c2ncn1[C@H]1CC[C@H](O)CC1  compound remaining (metabolic stability; minipig, hepatocytes; 1 µM, 4 h): 71%
Cc1nn(C)cc1-c1nc2c(N3CCN(Cc4ccc(Cl)cc4)CC3)c(Cl)cnc2[nH]1  remaining binding (LATS1; binding, competition with immobilised ligand; 1 µM): 89%
CCCC[C@@H]1NC(=O)[C@H](Cc2ccc(O)cc2)NC(=O)[C@@H]2CCCN2C(=O)[C@H](CC(=O)O)NC(=O)[C@H](C)NC(=O)[C@H](Cc2ccccc2)NC(=O)[C@@H]2CSCCC(=O)N3CN(CN(C3)C(=O)CCSC[C@@H](C(=O)N[C@@H](CNC(=O)CCOCCOCCOCCOCCOCCn3cc(CCC(=O)N[C@H]4CSCCC(=O)N5CN6CN(C5)C(=O)CCSC[C@H](NC(=O)[C@@H](CC(=O)O)NC(=O)[C@H](Cc5cccc7ccccc57)NC(=O)[C@@H]5CCCN5C4=O)C(=O)N[C@@H](CCSC)C(=O)N[C@@H](CCCCNC(=N)N)C(=O)N[C@@H](CC(=O)O)C(=O)N[C@@H](Cc4c[nH]c5ccccc45)C(=O)N[C@@H](CO)C(=O)N[C@@H]([C@@H](C)O)C(=O)N4CCC[C@H]4C(=O)N4C[C@H](O)C[C@H]4C(=O)N[C@@H](Cc4c[nH]c5ccccc45)C(=O)N[C@H](C(N)=O)CSCCC6=O)nn3)C(N)=O)NC1=O)C(=O)CCSC[C@H](NC(C)=O)C(=O)N[C@@H](CC(C)(C)C)C(=O)N1CCC[C@H]1C(=O)N[C@@H](CCC(=O)O)C(=O)N[C@H](C)C(=O)N1CCC[C@H]1C(=O)N[C@@H](Cc1ccc(O)cc1)C(=O)N2  Vd (rat, plasma; intravenous, 2 mg/kg): 0.84 L/kg
CC(C)C[C@H]1C(=O)N[C@@H](C(C)C)C(=O)N[C@@H](Cc2ccccc2)C(=O)N[C@H](CC(=O)O)C(=O)N2CCC[C@@H]2C(=O)N[C@H](CCC(=O)O)C(=O)N[C@H](C(=O)O)CSSC[C@@H](N)C(=O)N[C@@H](CCC(=O)O)C(=O)N2CCC[C@H]2C(=O)N1C  solubility (aqueous buffer; 18 h, pH 7.4): 617 µM (≈ 717 µg/mL)
C[C@]12CC[C@H](n3ccnc3)CC1=CC[C@@H]1[C@@H]2CC[C@]2(C)C(n3cnc4ccccc43)=CC[C@@H]12.Cl.Cl  bioavailability (male CD-1 mouse, plasma; oral, 10 mg/kg): > 100%
O=c1c2nc(Cl)ccc2[nH]c(=S)n1Cc1cccnc1  pIC50 (4'-phosphopantetheinyl transferase PptT; enzyme activity, inhibitor, FP): 5.72
N=C(N)NCCC[C@@H](NC(=O)[C@@H](N)Cc1ccccc1)C(=O)N[C@@H](Cc1ccccc1)C(=O)N[C@@H](CCCCN)C(N)=O  Tmax (human, plasma; subcutaneous, 5 mg, patients): 0.62 h
Nc1ncc(-c2nc(N3CCOCC3)nc(N3CCOCC3)n2)c(C(F)F)n1  remaining binding (Bone morphogenetic protein receptor type-1A (BMPR1A, Homo sapiens, UniProt P36894); binding, competition with immobilised ligand; 10 µM): 93%
COCc1cc2[nH]c(=S)n(Cc3cccnc3)c(=O)c2cc1Cl  pIC50 (4'-phosphopantetheinyl transferase PptT; enzyme activity, inhibitor, FP): 5.14
[2H]c1c([2H])c([C@]2([2H])CCCN2C(=O)C(C)(C)Oc2ccc3cn[nH]c3c2)c([2H])c([2H])c1C([2H])([2H])[2H]  remaining binding (MAP kinase-activated protein kinase 5 (MAPKAPK5, Homo sapiens, UniProt Q8IW41); binding, competition with immobilised ligand; 1 µM): 75%
CC[C@H](C)[C@@H]1NC(=O)[C@H](CO)NC(=O)[C@H](CC(C)C)NC(=O)[C@H](CC(C)C)N(C)C(=O)[C@@H](Cc2ccc(O)cc2)NC(=O)[C@@H](Cc2ccc(O)cc2)NC(=O)CSC[C@@H](C(=O)O)NC(=O)CNC(=O)[C@@H](C(C)C)NC(=O)[C@H]2CCCN2C(=O)[C@H](C)NC1=O  solubility (aqueous buffer; pH 7.4): 702 µM (≈ 879 µg/mL)
CC(C)(N)CNC(=O)O[C@H]1CCC[C@@]2(C1)OOC1(O2)C2CC3CC(C2)CC1C3 (stereo partly drawn)  Tmax (male CD-1 mouse, plasma; oral, 10 mg/kg): 2 h
CC(C)(C)[C@H](NC(=O)[C@H](CCONC(=N)N)NC(=O)Cc1ccc(CNC(=N)N)cc1)C(=O)N[C@@H](CCONC(=N)N)C(=O)NCc1ccc(C(=N)N)cc1  Vd/F (male Sprague-Dawley rat, plasma; intraperitoneal, 2.5 mg/kg): 0.639 L/kg
CC(C)C[C@H](NC(=O)[C@H](Cc1ccccc1)NC(=O)[C@H](Cc1ccccc1)NC(=O)Cc1ccc(-c2ccccc2)cc1)C(=O)N[C@@H](CCCCN)C(=O)N[C@@H](CCCNC(=N)N)C(=O)N[C@H](C(=O)N[C@@H](Cc1c[nH]c2ccccc12)C(=O)N[C@@H](CCCCN)C(=O)N[C@@H](CCCNC(=N)N)C(=O)O)C(C)C  compound remaining (metabolic stability; monkey, liver microsomes; 5 min): 24.3%

A few entries again:
CC(C)C[C@H]1C(=O)N[C@@H](C)C(=O)N[C@@H](CO)C(=O)N[C@@H](C(C)C)C(=O)N(C)[C@@H](CC(C)C)C(=O)N[C@H](C)C(=O)N[C@H](C(C)C)C(=O)N2CCC[C@@H]2C(=O)N[C@H](Cc2ccc(O)cc2)C(=O)NCC(=O)N1C  solubility (aqueous buffer; 18 h, pH 7.4): 813 µM (≈ 812 µg/mL)
N=c1c2c(-c3ccccc3)c(-c3ccccc3)n(Cc3ccccc3)c2ncn1[C@H]1CC[C@H](O)CC1  compound remaining (metabolic stability; minipig, hepatocytes; 1 µM, 4 h): 71%
CC(C)C[C@H]1C(=O)N[C@@H](C(C)C)C(=O)N[C@@H](Cc2ccccc2)C(=O)N[C@H](CC(=O)O)C(=O)N2CCC[C@@H]2C(=O)N[C@H](CCC(=O)O)C(=O)N[C@H](C(=O)O)CSSC[C@@H](N)C(=O)N[C@@H](CCC(=O)O)C(=O)N2CCC[C@H]2C(=O)N1C  solubility (aqueous buffer; 18 h, pH 7.4): 617 µM (≈ 717 µg/mL)
